Assay results pooled from the literature.
Numbered parts are unrelated; each lists some results of a single study.
UniProt P51956, sequence (whole entry, looked up): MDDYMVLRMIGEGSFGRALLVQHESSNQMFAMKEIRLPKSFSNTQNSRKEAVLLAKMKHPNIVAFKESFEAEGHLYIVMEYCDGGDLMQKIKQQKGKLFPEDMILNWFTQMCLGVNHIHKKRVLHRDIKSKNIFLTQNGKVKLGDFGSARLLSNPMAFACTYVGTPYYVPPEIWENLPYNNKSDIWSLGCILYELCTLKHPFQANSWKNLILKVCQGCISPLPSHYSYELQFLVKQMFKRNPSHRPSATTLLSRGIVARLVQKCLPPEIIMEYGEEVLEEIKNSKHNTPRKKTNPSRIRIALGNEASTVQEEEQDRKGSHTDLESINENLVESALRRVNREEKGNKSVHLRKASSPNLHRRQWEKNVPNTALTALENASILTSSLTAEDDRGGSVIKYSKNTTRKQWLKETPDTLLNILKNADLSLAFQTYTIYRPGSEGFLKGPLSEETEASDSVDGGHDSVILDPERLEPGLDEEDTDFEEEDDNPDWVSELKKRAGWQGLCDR
UniProt P00519, sequence (whole entry, unmodified, looked up): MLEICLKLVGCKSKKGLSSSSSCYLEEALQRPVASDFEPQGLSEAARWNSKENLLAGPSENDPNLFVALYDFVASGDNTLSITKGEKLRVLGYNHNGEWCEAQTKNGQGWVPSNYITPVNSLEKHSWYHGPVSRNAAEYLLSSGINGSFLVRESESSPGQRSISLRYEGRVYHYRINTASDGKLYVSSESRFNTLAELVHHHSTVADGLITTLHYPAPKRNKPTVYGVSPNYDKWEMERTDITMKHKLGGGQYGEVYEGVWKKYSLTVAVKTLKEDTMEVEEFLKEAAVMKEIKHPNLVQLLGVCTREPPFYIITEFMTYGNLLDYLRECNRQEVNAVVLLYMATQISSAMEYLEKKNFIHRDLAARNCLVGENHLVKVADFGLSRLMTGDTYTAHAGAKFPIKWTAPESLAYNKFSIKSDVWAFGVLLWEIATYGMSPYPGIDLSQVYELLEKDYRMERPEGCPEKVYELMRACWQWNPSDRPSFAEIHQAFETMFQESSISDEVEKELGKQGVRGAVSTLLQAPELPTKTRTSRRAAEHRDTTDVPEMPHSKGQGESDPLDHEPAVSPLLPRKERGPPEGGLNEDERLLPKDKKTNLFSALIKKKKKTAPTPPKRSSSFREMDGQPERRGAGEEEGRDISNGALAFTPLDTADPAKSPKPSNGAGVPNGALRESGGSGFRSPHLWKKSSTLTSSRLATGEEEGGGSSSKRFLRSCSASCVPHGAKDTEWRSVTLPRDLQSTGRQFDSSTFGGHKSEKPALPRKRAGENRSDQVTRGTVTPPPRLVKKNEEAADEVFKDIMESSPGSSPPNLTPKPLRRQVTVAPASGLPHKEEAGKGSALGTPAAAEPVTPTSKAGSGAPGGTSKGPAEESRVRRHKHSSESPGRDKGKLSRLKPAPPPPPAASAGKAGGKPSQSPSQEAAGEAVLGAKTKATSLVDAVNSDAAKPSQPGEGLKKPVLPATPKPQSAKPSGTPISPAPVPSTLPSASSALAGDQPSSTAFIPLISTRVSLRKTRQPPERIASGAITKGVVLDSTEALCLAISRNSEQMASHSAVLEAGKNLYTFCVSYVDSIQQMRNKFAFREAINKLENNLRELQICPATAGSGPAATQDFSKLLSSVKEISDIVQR
UniProt Q86Z02, sequence (whole entry, looked up): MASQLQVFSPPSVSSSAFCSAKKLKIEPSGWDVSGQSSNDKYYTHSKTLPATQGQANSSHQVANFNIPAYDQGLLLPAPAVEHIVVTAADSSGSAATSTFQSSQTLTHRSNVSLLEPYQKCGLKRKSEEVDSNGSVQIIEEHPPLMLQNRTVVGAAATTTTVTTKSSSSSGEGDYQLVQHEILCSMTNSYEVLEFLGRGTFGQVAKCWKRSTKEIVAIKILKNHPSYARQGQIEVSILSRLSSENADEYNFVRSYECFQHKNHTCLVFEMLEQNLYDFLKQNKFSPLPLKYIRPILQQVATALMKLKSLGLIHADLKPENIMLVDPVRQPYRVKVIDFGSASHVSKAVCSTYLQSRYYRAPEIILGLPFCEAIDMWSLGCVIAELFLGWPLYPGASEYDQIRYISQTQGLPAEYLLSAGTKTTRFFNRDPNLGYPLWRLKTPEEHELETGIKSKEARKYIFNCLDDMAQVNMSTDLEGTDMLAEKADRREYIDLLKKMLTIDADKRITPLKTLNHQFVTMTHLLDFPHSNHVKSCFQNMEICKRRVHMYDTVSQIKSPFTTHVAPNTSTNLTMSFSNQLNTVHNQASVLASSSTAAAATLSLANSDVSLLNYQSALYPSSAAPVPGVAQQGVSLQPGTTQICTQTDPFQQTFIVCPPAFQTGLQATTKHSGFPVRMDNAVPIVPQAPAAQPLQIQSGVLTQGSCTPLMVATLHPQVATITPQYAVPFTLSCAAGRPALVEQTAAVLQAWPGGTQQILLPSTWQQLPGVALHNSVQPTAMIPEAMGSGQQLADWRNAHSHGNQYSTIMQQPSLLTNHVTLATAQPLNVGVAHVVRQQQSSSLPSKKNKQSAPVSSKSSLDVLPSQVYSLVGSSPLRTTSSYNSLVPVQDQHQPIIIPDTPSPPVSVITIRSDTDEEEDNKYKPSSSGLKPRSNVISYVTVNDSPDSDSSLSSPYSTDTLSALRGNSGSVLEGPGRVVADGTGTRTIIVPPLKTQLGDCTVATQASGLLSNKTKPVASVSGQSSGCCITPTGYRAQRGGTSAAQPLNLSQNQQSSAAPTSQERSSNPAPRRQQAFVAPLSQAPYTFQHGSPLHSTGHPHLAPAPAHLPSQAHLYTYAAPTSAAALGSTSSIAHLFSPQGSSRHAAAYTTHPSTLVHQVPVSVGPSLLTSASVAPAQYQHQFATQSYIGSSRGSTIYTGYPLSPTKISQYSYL
UniProt P27037, sequence (whole entry, looked up): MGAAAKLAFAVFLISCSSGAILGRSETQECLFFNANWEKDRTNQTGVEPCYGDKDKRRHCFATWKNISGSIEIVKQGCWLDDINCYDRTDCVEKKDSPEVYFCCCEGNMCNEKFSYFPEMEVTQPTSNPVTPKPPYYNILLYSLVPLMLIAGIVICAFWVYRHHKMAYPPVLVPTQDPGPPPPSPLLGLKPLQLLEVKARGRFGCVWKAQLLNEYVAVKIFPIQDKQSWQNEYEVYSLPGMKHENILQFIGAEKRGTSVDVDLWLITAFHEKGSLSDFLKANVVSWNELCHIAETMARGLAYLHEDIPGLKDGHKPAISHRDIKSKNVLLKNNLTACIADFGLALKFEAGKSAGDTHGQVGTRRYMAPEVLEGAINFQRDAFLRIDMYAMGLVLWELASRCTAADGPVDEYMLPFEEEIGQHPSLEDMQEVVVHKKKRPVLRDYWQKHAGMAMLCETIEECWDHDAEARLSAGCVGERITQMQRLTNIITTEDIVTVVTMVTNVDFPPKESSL

Study 1 — observed: enzyme activity; action: inhibitor; concentration: 10 µM
Target: Calcium/calmodulin-dependent protein kinase type II subunit alpha (CAMK2A, Homo sapiens, UniProt Q9UQM7)
UniProt Q9UQM7, sequence (whole entry, looked up): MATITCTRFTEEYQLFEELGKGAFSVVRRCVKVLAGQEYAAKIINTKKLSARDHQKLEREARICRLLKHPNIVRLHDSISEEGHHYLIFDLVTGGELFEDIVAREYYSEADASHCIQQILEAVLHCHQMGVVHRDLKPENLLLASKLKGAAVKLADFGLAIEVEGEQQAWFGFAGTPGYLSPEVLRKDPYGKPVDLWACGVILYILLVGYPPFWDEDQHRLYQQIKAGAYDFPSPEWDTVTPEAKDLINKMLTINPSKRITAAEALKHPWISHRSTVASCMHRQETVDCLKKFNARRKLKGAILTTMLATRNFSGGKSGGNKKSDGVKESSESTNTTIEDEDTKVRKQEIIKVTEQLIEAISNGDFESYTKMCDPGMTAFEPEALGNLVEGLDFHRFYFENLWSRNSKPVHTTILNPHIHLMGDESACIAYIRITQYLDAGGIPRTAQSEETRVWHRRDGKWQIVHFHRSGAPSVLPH
| Compound | inhibition |
| --- | --- |
| CCCSSC | -10% |
| CC[C@]12CCCN3CCc4c(n(c5ccccc45)C(=O)C1)[C@@H]32 | -5% |
| COc1cc2c(=O)c3c(O)c([C@@H]4O[C@H](CO[C@@H]5OC[C@](O)(CO)[C@H]5O)[C@@H](O)[C@H](O)[C@H]4O)c(O)cc3oc2cc1O | 16% |
| CN(C)C(=O)c1ccc(S(=O)(=O)c2ccc(NC(=O)[C@@](C)(O)C(F)(F)F)c(Cl)c2)cc1 | -16% |
| COc1c(O[C@@H]2O[C@H](C(=O)O)[C@@H](O)[C@H](O)[C@H]2O)cc(O)c2c(=O)cc(-c3ccccc3)oc12 | -9% |
| C/C1=C\CC(C)(C)/C=C/C(=O)/C(C)=C/CC1 | -27% |
| N[C@H](Cc1c[nH]c2ccccc12)C(=O)O | 2% |
| O=C(O)c1cc(=O)c2c(OCC(O)COc3cccc4oc(C(=O)O)cc(=O)c34)cccc2o1 | 1% |
| O=C1CN(/N=C/c2ccc(-c3ccc([N+](=O)[O-])cc3)o2)C(=O)N1 | -7% |

Study 2 — concentration: 1 µM
Structure (SMILES): CO[C@@H](C)c1c(Nc2ccc([C@H](N(C)C(=O)C3CCS(=O)(=O)CC3)C(F)(F)F)cc2)cnc2cc(Cl)nn12
| target | test | remaining binding [%] |
| --- | --- | --- |
| CHEK1 (Homo sapiens, UniProt O14757) | cell-free assay, competition with immobilised ligand | 91 |
| BUB1 (Homo sapiens, UniProt O43683) | cell-free assay, competition with immobilised ligand | 100 |
| Tyrosine-protein kinase ABL1, phosphorylated (ABL1, Homo sapiens, UniProt P00519, E255K) | binding, competition with immobilised ligand | 76 |
| DYRK1B (Homo sapiens, UniProt Q9Y463) | cell-free assay, competition with immobilised ligand | 78 |
| PIM3 (Homo sapiens, UniProt Q86V86) | cell-free assay, competition with immobilised ligand | 86 |
| CDK4 (Homo sapiens, UniProt P11802) | cell-free assay, competition with immobilised ligand | 100 |
| GSK3B (Homo sapiens, UniProt P49841) | cell-free assay, competition with immobilised ligand | 100 |
| LIM domain kinase 2 (LIMK2, Homo sapiens, UniProt P53671) | cell-free assay, competition with immobilised ligand | 91 |
| CDK13 (Homo sapiens, UniProt Q14004) | cell-free assay, competition with immobilised ligand | 100 |
| CSNK1A1 (Homo sapiens, UniProt P48729) | cell-free assay, competition with immobilised ligand | 51 |
| FLT3 (Homo sapiens, UniProt P36888, R834Q) | cell-free assay, competition with immobilised ligand | 100 |
| CDC42BPG (Homo sapiens, UniProt Q6DT37) | competition binding | 87 |
| MAPKAPK2 (Homo sapiens, UniProt P49137) | cell-free assay, competition with immobilised ligand | 90 |
| HIPK1 (Homo sapiens, UniProt Q86Z02) | binding, competition with immobilised ligand | 40 |
| TIE1 (Homo sapiens, UniProt P35590) | cell-free assay, competition with immobilised ligand | 92 |
| MAP4K3 (Homo sapiens, UniProt Q8IVH8) | cell-free assay, competition with immobilised ligand | 99 |
| STK24 (Homo sapiens, UniProt Q9Y6E0) | cell-free assay, competition with immobilised ligand | 83 |
| GRK3 (Homo sapiens, UniProt P35626) | cell-free assay, competition with immobilised ligand | 100 |
| TRPM6 (Homo sapiens, UniProt Q9BX84) | cell-free assay, competition with immobilised ligand | 100 |
| ACVR2A (Homo sapiens, UniProt P27037) | cell-free assay, competition with immobilised ligand | 93 |
| CAMK2A (Homo sapiens, UniProt Q9UQM7) | cell-free assay, competition with immobilised ligand | 83 |
| NEK3 (Homo sapiens, UniProt P51956) | binding, competition with immobilised ligand | 40 |

Study 3 — method: phase 2a trial; species: idiopathic pulmonary fibrosis patients
Compound: CC(C)n1cnc(-c2ccc(F)cc2)c1-c1ncc(C(=O)Nc2ccc(N3CCN(C)CC3)cc2)[nH]1
| conditions | patients with fatigue [%] |
| --- | --- |
| all arms pooled, grade 4 emergent event | 0 |
| 60 mg once daily, grade 4 emergent event | 0 |
| 60 mg once daily, grade 3 emergent event | 0 |
| 60 mg once daily, grade 2 emergent event | 0 |
| 30 mg once daily, grade 3 emergent event | 0 |
| all arms pooled, grade 5 emergent event | 0 |

Study 4 — SMILES: C=CCc1ccc(O)c(-c2cc(CC=C)ccc2O)c1; observed: chloride current; method: whole-cell patch clamp
Target: Anoctamin-1 (ANO1, Homo sapiens, UniProt Q5XXA6, del476-501)
UniProt Q5XXA6, sequence (whole entry, unmodified, looked up): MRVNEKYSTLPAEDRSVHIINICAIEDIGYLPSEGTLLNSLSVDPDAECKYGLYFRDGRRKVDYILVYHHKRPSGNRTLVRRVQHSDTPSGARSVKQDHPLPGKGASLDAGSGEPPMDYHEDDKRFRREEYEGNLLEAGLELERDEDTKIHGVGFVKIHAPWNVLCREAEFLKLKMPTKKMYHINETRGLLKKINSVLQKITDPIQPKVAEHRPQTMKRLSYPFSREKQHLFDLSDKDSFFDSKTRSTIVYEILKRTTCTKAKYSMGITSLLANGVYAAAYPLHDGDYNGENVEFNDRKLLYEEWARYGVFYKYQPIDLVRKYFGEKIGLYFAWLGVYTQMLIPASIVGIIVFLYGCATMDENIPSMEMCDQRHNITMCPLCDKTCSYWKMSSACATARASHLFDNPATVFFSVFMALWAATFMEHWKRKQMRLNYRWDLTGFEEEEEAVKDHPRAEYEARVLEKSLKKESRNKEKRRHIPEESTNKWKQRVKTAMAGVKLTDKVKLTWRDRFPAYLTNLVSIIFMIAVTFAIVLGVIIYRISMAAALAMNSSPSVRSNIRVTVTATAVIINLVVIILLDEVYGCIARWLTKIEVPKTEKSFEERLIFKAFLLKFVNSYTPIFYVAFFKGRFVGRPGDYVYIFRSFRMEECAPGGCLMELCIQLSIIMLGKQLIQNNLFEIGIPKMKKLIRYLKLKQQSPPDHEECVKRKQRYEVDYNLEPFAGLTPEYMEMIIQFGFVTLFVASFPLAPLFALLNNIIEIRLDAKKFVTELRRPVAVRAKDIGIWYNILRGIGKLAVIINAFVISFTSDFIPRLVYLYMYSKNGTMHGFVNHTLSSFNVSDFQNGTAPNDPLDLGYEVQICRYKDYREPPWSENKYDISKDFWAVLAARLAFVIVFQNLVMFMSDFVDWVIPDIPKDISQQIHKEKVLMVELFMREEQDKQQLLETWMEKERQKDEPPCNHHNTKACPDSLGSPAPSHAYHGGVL
| conditions | normalised current |
| --- | --- |
| 3 µM, 60 mV, 300 nM free Ca2+ | 0.364 |
| 30 µM, 100 mV, 300 nM free Ca2+, with: honokiol and magnolol 3 µM | 0.305 |
| 30 µM, 20 mV, 300 nM free Ca2+, with: honokiol and magnolol 3 µM | 0.0172 |
| 100 µM, 20 mV, 300 nM free Ca2+ | 0.0147 |
| 10 µM, 80 mV, 300 nM free Ca2+, with: honokiol and magnolol 3 µM | 0.382 |
| 10 µM, 40 mV, 300 nM free Ca2+, with: honokiol and magnolol 3 µM | 0.128 |
| 1 µM, 60 mV, 300 nM free Ca2+ | 0.367 |
| 1 µM, 80 mV, 300 nM free Ca2+ | 0.615 |
| 30 µM, 80 mV, 300 nM free Ca2+ | 0.29 |
| 1 µM, 40 mV, 300 nM free Ca2+ | 0.194 |

Excerpt of the above (study 2):
| target | test | remaining binding [%] |
| --- | --- | --- |
| MAPKAPK2 (Homo sapiens, UniProt P49137) | cell-free assay, competition with immobilised ligand | 90 |
| HIPK1 (Homo sapiens, UniProt Q86Z02) | binding, competition with immobilised ligand | 40 |
| TIE1 (Homo sapiens, UniProt P35590) | cell-free assay, competition with immobilised ligand | 92 |
| MAP4K3 (Homo sapiens, UniProt Q8IVH8) | cell-free assay, competition with immobilised ligand | 99 |
| STK24 (Homo sapiens, UniProt Q9Y6E0) | cell-free assay, competition with immobilised ligand | 83 |
| GRK3 (Homo sapiens, UniProt P35626) | cell-free assay, competition with immobilised ligand | 100 |
